Experimental data gathered from unrelated publications.
Every numbered part comes from another study and shows a few of its results, in no order. Changes are numbered by the printed parent chain.
Sequence of UniProt Q15349 (whole entry, looked up): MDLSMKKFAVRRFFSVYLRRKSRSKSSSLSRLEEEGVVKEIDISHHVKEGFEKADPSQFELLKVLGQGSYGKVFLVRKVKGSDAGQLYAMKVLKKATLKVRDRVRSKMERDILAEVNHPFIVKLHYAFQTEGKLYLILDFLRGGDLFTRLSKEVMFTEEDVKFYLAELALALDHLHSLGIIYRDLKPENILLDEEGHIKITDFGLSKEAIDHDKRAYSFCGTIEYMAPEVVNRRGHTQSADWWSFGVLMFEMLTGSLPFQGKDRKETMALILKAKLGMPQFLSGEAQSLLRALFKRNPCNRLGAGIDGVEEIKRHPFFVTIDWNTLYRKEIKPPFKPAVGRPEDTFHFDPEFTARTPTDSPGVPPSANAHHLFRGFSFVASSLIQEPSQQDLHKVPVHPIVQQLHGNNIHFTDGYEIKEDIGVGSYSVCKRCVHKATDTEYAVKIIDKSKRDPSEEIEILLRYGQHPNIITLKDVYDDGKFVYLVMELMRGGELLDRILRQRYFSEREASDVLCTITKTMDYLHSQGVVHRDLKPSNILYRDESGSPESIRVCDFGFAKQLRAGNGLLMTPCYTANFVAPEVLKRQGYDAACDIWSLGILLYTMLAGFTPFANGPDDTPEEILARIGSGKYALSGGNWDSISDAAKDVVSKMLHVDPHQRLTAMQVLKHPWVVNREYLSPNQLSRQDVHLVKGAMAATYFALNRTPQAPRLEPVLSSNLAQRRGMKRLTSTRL
Sequence of UniProt P25098 (whole entry, looked up): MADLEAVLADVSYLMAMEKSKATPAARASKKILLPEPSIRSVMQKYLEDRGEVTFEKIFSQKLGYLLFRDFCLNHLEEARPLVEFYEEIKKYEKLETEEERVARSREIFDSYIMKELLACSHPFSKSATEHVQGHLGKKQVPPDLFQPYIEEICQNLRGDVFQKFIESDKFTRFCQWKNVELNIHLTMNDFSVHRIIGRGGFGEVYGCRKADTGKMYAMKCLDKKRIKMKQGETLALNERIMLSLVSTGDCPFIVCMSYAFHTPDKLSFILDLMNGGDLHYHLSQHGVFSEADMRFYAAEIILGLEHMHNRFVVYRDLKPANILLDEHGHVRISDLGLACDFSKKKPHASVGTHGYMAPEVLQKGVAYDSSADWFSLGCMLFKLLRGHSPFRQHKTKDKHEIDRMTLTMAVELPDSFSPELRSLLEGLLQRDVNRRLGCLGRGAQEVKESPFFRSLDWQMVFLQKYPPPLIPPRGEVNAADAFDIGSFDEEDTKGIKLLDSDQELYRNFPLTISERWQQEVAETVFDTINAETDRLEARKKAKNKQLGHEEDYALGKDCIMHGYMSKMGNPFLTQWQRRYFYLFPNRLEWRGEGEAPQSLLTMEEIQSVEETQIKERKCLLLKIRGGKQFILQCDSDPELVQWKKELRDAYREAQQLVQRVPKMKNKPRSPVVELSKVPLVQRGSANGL
Sequence of UniProt Q99640 (whole entry, looked up): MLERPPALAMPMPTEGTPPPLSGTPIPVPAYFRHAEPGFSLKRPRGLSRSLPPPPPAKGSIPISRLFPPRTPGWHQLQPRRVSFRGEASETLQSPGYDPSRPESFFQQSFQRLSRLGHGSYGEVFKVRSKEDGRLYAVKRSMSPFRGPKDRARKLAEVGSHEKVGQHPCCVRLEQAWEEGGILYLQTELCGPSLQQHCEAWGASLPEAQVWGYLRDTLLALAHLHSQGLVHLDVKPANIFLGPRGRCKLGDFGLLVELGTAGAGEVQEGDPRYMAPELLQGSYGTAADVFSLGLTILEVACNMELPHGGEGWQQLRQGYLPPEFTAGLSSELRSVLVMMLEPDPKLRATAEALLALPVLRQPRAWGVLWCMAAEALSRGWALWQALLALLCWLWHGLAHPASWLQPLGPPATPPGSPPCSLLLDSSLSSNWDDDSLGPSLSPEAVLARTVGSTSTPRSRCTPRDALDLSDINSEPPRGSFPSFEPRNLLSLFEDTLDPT
Sequence of UniProt P11802 (whole entry, looked up): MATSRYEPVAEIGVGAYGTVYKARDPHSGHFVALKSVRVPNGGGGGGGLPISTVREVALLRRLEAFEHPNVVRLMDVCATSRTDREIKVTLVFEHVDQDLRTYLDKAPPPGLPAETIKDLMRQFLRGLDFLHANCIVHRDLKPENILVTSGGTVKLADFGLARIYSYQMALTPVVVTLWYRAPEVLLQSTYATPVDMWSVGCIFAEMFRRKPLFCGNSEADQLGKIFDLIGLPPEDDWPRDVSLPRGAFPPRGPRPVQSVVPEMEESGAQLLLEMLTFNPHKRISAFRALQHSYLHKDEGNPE
Sequence of UniProt P22607 (whole entry, unmodified, looked up): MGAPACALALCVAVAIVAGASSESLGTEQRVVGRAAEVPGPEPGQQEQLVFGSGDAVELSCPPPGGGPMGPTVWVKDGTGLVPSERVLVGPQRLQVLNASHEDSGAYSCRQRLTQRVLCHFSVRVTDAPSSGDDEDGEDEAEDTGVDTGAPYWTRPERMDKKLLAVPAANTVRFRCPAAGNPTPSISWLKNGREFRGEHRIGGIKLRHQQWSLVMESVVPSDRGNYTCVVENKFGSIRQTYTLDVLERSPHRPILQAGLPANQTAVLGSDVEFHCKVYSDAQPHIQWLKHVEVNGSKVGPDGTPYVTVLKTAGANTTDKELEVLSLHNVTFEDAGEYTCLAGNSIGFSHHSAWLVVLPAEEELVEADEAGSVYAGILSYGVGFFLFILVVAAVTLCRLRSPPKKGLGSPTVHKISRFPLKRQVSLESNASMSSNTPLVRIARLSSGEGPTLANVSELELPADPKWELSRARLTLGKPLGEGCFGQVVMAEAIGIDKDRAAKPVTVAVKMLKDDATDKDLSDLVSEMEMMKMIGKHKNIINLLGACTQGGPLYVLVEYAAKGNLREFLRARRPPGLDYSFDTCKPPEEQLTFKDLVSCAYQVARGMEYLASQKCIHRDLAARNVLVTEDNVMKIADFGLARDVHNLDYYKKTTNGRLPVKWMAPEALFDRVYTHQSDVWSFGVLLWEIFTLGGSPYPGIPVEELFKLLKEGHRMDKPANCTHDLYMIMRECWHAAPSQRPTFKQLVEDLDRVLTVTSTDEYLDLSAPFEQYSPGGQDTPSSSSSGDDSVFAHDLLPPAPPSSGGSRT
Sequence of UniProt P16591 (whole entry, looked up): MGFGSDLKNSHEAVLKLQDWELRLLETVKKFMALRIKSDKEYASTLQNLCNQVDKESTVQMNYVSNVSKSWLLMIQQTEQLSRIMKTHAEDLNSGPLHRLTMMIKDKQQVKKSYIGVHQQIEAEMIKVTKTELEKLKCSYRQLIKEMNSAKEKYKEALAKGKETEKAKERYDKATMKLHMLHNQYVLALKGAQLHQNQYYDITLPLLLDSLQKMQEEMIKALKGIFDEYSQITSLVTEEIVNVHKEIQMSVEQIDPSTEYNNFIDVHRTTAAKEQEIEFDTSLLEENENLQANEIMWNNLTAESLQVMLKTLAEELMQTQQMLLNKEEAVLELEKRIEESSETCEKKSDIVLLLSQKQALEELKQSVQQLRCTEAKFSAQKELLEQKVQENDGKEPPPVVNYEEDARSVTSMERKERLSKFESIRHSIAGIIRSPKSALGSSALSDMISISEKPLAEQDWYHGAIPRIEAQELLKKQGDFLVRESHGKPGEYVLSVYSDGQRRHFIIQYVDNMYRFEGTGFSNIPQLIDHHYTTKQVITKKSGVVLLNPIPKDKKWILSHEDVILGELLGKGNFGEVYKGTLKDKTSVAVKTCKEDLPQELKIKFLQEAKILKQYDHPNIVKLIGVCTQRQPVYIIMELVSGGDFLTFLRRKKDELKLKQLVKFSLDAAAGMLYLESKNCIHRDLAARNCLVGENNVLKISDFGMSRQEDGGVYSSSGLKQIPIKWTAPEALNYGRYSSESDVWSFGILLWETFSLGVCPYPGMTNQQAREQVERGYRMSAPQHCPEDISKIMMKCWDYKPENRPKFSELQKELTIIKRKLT
Sequence of UniProt P07949 (whole entry, looked up): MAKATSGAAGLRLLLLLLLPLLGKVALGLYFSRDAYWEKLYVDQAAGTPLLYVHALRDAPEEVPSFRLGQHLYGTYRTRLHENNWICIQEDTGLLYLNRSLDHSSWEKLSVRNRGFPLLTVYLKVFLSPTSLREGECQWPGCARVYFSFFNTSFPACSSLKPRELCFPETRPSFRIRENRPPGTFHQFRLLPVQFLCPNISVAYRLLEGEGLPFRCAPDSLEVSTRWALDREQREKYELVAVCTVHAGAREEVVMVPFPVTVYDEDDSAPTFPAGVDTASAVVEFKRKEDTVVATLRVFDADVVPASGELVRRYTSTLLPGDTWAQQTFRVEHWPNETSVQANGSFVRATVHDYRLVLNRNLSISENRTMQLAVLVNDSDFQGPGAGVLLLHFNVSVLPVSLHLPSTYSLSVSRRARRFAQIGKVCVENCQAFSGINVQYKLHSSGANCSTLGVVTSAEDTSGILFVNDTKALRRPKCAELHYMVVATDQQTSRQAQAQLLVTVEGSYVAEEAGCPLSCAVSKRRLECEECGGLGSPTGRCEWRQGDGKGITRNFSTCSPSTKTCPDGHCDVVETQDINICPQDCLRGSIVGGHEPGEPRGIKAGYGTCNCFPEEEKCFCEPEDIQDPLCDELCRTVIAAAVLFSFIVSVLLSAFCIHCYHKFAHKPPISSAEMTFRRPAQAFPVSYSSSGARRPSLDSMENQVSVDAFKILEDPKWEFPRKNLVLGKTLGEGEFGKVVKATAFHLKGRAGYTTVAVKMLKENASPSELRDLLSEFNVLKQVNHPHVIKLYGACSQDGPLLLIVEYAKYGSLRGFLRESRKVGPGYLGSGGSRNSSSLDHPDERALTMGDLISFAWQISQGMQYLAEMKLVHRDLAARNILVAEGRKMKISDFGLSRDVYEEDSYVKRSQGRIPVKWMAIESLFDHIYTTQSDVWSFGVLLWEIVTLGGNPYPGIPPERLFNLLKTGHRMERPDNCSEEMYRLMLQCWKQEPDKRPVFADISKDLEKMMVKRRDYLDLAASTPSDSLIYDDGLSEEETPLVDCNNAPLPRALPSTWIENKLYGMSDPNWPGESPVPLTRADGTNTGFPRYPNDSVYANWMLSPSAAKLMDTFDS

Block 1
Host: mouse
Sample: microsomes or S9
Tested at: 2 µM
Time: 0.5 h
SMILES	remaining compound
O=C(O)c1ccc(Nc2nc(-c3ccc(Cl)cc3)cs2)cc1	80.2%
CCN(CC)CCN(C)Cc1cccc2ccccc12	0.0284%
COc1ccc(/C=C/c2nnc(-c3ccc(Cl)cc3Cl)o2)cc1	51.7%
CCOc1cc(=O)n2c(c1C(=O)N1CCCc3ccccc31)CCCC2	0.347%

Block 2
Structure (SMILES): CCS(=O)(=O)c1cc2cc(C[C@@](O)(CC(C)(C)c3ccc(F)cc3C(N)=O)C(F)(F)F)[nH]c2cn1
Read-out: cell-free assay
Method: competition with immobilised ligand
Tested at: 1 µM
target	remaining binding
Ribosomal protein S6 kinase alpha-2, C-terminal kinase domain (RPS6KA2, Homo sapiens, UniProt Q15349)	0%
Receptor-type tyrosine-protein kinase FLT3 (FLT3, Homo sapiens, UniProt P36888, N841I)	100%
Membrane-associated tyrosine- and threonine-specific cdc2-inhibitory kinase (PKMYT1, Homo sapiens, UniProt Q99640)	67%
LIM domain kinase 2 (LIMK2, Homo sapiens, UniProt P53671)	100%
Mitotic checkpoint serine/threonine-protein kinase BUB1 (BUB1, Homo sapiens, UniProt O43683)	66%
Tyrosine-protein kinase Fer (FER, Homo sapiens, UniProt P16591)	74%
Dual specificity tyrosine-phosphorylation-regulated kinase 1B (DYRK1B, Homo sapiens, UniProt Q9Y463)	100%
Beta-adrenergic receptor kinase 1 (GRK2, Homo sapiens, UniProt P25098)	50%
Proto-oncogene tyrosine-protein kinase receptor Ret (RET, Homo sapiens, UniProt P07949)	100%
Cyclin-dependent kinase 4 (CDK4, Homo sapiens, UniProt P11802)	81%
Fibroblast growth factor receptor 3 (FGFR3, Homo sapiens, UniProt P22607, G697C)	100%
Casein kinase I isoform alpha (CSNK1A1, Homo sapiens, UniProt P48729)	86%

Block 3
Target: XBP1, bZIP domain (human)
Method: DHFR protein complementation
Sample: yeast
Notes: single substitutions, most at no-binding floor
Reference: wild-type JUN-FOS pair
Reading: higher = stronger binding
Starting sequence: JUN, bZIP domain (human); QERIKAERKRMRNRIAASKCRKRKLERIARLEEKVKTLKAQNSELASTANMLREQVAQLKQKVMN; partner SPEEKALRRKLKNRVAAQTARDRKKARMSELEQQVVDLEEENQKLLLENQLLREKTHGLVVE
Substitution	binding fitness [natural log]
S43R	-0.376
E54S	-1.15
K39R	-0.554
V56W	-0.514
I28E	-1.04
A57Y	-0.955
K34E	-1.35
L38H	-1.4

Block 4
Method: PRP chromatography estimate
Sample: 1,9-decadiene/PBS
pH: 7.4
SMILES	logD
CC(C)C[C@@H]1NC(=O)[C@H](C)NC(=O)[C@H](C)NC(=O)[C@H](CCC(=O)N2CCCC2)NC(=O)[C@H](CC(C)C)NC(=O)[C@H](CC(C)C)NC(=O)[C@H](CC(C)C)NC1=O	-1.95
CC(C)C[C@@H]1NC(=O)[C@H](C)NC(=O)[C@@H](CC(C)C)NC(=O)[C@H](C)NC(=O)[C@H](CC(C)C)NC(=O)[C@H](CC(C)C)NC(=O)[C@H](CC(C)C)NC1=O	-0.215
CC(C)C[C@@H]1NC(=O)[C@H](CC(C)C)NC(=O)[C@@H](C(C)C)NC(=O)[C@H](C)NC(=O)[C@@H](Cc2cscn2)NC(=O)[C@H](C)NC(=O)[C@H](CCC(=O)N2CCCC2)NC1=O	-3.51
CC(C)C[C@@H]1NC(=O)[C@H](C)NC(=O)[C@H](Cc2cscn2)NC(=O)[C@H](CC(C)C)NC(=O)[C@@H](CCC(=O)N2CCCC2)NC(=O)[C@H](CC(C)C)NC(=O)[C@@H](CC(C)C)NC1=O	-1.41

Single results of other studies
Tested at: 10 µM
Compound	tested on	assay	setting	how to read	quantity	result
O=C(Nc1ccncc1)c1cc([N+](=O)[O-])ccc1Cl	mouse MPNST tumor cells	high-content immunofluorescence imaging, measured: nuclear SOX9	12 h, mean of 2 replicates	reference: DMSO control, higher = more nuclear SOX9	nuclear SOX9 intensity	104 % of DMSO
C#C[C@]1(O)CC[C@H]2[C@@H]3CCC4=Cc5oncc5C[C@]4(C)[C@H]3CC[C@@]21C	Sarcocystis neurona	parasite growth			inhibition	12%
c1ccc(COCCCc2c[nH]cn2)cc1	mouse MPNST tumor cells	high-content immunofluorescence imaging, measured: nuclear SOX9	12 h, mean of 2 replicates	reference: DMSO control, higher = more nuclear SOX9	nuclear SOX9 intensity	104 % of DMSO
